Published values of several laboratories.
A part holds a random share of what one study measured. Positions count from the first letter of the parent shown.

Study 1 — method: RNA Bind-n-Seq; molecule type: RNA; sample: in vitro; concentration: 1 µM; setting: whole 134-nt RNA, ends assumed; together with: 150 mM KCl; reference: input library; reading: higher = stronger binding
Target: Ras GTPase-activating protein-binding protein 1, C-terminal RGG region (G3BP1, Homo sapiens, UniProt Q13283)
UniProt Q13283, sequence (whole entry, looked up): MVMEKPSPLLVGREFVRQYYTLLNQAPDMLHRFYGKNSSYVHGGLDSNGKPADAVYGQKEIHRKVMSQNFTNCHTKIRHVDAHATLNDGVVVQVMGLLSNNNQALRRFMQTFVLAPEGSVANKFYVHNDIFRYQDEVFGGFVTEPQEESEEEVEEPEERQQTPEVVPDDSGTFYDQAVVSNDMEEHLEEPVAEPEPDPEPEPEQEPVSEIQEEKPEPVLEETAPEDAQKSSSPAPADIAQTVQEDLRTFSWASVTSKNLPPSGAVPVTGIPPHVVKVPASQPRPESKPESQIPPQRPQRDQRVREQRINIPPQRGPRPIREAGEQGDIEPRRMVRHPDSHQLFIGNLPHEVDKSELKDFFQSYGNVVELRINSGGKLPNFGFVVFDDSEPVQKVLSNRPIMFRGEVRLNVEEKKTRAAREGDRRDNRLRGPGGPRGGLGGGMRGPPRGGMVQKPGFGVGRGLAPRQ
`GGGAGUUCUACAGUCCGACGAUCUGCGGGACAAAGAAGUGGCCAAUCGAUACUUUACCACUGUCUGUGUGAGAUUACUGCUUGAGAGCAAAGAAAAGAAGAUCAGGGAAUUCAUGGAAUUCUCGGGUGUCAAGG` has a log2 enrichment of 0.0425.
The log2 enrichment of `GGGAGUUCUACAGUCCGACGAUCUCCUGUGCUACACAUCGUAUGUACCGAAUCGGGCCCCCCGGGCCCCCCGGCCCCCCGGGAAAGUAUUAUGUUACGCCGUUCGGAUCUGCAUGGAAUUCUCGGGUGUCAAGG` is reported as -1.51.
The log2 enrichment of `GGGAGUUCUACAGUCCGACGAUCAAGUCCUGUGCUACACAUCGUAUGUACCGAAUCGGGGCCCCGGGGCCCCGGCCCCGGAAAGUAUUAUGUUACGCCGUUCGGAUCUGCACUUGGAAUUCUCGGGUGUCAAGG` is reported as -1.88.
`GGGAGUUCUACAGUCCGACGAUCUAACUUUAGAGGAGGAUCUGAUGGAUAUGGCAGCGGACGUGGAUUUGGGGAUGGCUAUAAUGGGUAUGGAGGAGGACCUGGAGGUGGCAAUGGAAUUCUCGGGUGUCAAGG` has a log2 enrichment of -1.05.
`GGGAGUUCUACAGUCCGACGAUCCAUAGACAACACGCACCCACACAGACACAGAGGGAAGGGGUUGGGAUGGGGACAGGGUGCACAGCAGGGCGGGGUAGGACCCCAGCCCCUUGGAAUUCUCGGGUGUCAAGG` has a log2 enrichment of -0.485.
For `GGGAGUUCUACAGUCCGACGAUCAGUCCUGUGCUACACAUCGUAUGUACCGAAUCGGGUUUUUGGGAAAAAAAGGGUGGGAAAGUAUUAUGUUACGCCGUUCGGAUCUGCACUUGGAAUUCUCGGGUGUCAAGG`, the log2 enrichment was 0.69.
`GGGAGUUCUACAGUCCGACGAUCGCAGGAAGUAAAAACAAAUGGAAAUGCUUCGGAUAGUGGCAGGGGUGGGGGUUGCAAAGGAAAGGGUGGGAUGGGAGUGGGUAAAGAGUUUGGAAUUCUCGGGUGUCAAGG` gave a log2 enrichment of 1.64.
`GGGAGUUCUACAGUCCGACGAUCUUCAAGGCCAUGAAGGACCUGUUUAUGCGGUGCAUGCUGUUUACCAGAGGAGGACAUCAGAUCCUGCAUUAUGUACACUGAUCGUUUCUGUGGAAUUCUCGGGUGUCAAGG` gave a log2 enrichment of -1.02.
With `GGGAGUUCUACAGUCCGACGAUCUAGGGUUCAGGAUAAGUUUGAGGUGCUGAAUUACACAAGCAUUCCUAUCUUUCUCCCGGAAGUCACCAUUGGAGCUCAUCAGACUGACCGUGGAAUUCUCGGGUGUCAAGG` the log2 enrichment was -1.06.
The log2 enrichment of `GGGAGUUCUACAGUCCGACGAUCUCCUGUGCUACACAUCGUAUGUACCGAAUCGGGAAAAAGGGAAAAAGGGUUUUUUUGGGAAAGUAUUAUGUUACGCCGUUCGGAUCUGCAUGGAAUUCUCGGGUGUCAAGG` is reported as -0.525.

Study 2 — target: CCNB1, cyclin fold, Cln2 fusion (human); method: yeast growth competition, sequencing; sample: yeast; setting: strong parent motif; reference: not given; reading: higher = stronger binding
Starting sequence: BRCA2 docking peptide (human); PSIKRNLLNEFDR
For `L7K`, “normalised enrichment score” read 0.388.
`L8G` — result for “normalised enrichment score”: 0.504.
`E10F`: “normalised enrichment score” 1.36.
`K4C` — result for “normalised enrichment score”: 5.05.
For `R13T`, “normalised enrichment score” read 2.83.
`F11Q` — result for “normalised enrichment score”: 0.337.
Under “normalised enrichment score”, `N6F` is recorded as 0.911.
`R13A`: “normalised enrichment score” 3.43.
`P1S` — result for “normalised enrichment score”: 2.71.
For `R5P`, “normalised enrichment score” read -0.1.
Under “normalised enrichment score”, `K4I` is recorded as 2.9.
`N9H` — result for “normalised enrichment score”: 2.48.
For `L7G`, “normalised enrichment score” read 0.208.
Under “normalised enrichment score”, `L8V` is recorded as 1.35.
Under “normalised enrichment score”, `N6M` is recorded as 0.687.
`F11R` — result for “normalised enrichment score”: 0.483.
For `I3A`, “normalised enrichment score” read 0.613.
`R5A` — result for “normalised enrichment score”: 0.172.
`S2Q` — result for “normalised enrichment score”: 2.38.
`P1Y` — result for “normalised enrichment score”: 2.61.
Under “normalised enrichment score”, `S2H` is recorded as 1.07.
`N9C`: “normalised enrichment score” 2.02.
Under “normalised enrichment score”, `R13D` is recorded as 3.21.
Under “normalised enrichment score”, `N6D` is recorded as 1.15.
Under “normalised enrichment score”, `N9Y` is recorded as 3.25.

Study 3 — method: protein-binding microarray; molecule type: double-stranded DNA, one strand shown; sample: in vitro; concentration: not given; reading: higher = stronger binding
Target: Protein C-ets-1 (ETS1, Homo sapiens, UniProt P14921, residues 1-441, K379A, full length assumed)
Setting: k-mer, scored over probes, only values ≥0.25
Residues (chain): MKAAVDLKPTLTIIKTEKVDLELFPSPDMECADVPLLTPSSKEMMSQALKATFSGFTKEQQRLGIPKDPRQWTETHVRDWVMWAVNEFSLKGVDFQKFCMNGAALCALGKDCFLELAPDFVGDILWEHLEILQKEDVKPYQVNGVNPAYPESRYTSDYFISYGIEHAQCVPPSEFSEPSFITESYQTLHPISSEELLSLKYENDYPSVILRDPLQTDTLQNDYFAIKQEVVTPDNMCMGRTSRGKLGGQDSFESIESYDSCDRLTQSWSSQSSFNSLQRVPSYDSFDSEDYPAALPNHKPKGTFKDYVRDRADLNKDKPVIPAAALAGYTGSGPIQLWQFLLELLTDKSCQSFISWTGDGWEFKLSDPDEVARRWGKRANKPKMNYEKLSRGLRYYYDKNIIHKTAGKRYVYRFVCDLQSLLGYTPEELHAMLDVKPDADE
With `AACCTATA` the E-score was 0.272.
`ACTACAAC` gave an E-score of 0.271.
`CCCCGGTC` gave an E-score of 0.461.
`GCCGGTAA` gave an E-score of 0.406.
The E-score of `GCCGGTAC` is reported as 0.377.
For `CGGCCGAC`, the E-score was 0.286.
`CCCCGGAG` has an E-score of 0.304.
For `ACAAAACG`, the E-score was 0.255.
`GTTACATA` gave an E-score of 0.279.
`ATGGTATC` gave an E-score of 0.258.
`ATCCGACA` gave an E-score of 0.312.
For `AAGTACCG`, the E-score was 0.256.
With `GTATATGA` the E-score was 0.271.
For `CGACGGAC`, the E-score was 0.335.
`AATGTCGG` has an E-score of 0.285.
`CCGGTTCC` gave an E-score of 0.308.
The E-score of `CCGGGGCG` is reported as 0.377.
For `CCCGGTCG`, the E-score was 0.444.
The E-score of `GTACAAAA` is reported as 0.334.
`TCACCGGA` has an E-score of 0.396.
The E-score of `ACAGACAA` is reported as 0.257.
With `GCATGTCA` the E-score was 0.267.
For `ACAAGACA`, the E-score was 0.271.

Study 4 — target: CEBPB, bZIP domain (human); method: DHFR protein complementation; sample: yeast; reference: wild-type JUN-FOS pair; reading: higher = stronger binding
Setting: single substitutions, most at no-binding floor
Starting sequence: JUN, bZIP domain (human); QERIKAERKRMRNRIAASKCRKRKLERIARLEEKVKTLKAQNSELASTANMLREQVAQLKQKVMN; partner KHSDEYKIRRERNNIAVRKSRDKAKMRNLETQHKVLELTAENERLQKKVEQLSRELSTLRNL
With `A29F` the binding fitness was -1.41 natural log.
With `Q41I` the binding fitness was -1.29 natural log.
With `S43H` the binding fitness was -1.23 natural log.
For `K39R`, the binding fitness was -1.28 natural log.
With `L31S` the binding fitness was -1.42 natural log.
`I28D` gave a binding fitness of -1.05 natural log.
`N42C` has a binding fitness of -1.5 natural log.
With `L52R` the binding fitness was -1.51 natural log.
`R30M` gave a binding fitness of -1.2 natural log.
With `L38D` the binding fitness was -1.4 natural log.
For `K34H`, the binding fitness was -1.4 natural log.
`A46Y` gave a binding fitness of -1.31 natural log.
With `E32G` the binding fitness was -1.43 natural log.
`I28N` gave a binding fitness of -1.15 natural log.
`V35R` gave a binding fitness of -1.44 natural log.

Study 5 — method: DHFR PCA, deep sequencing; sample: yeast; together with: (+)-ABA 17 µM; reference: wild-type fitted maximum; reading: higher = stronger binding
Target: ABI1, truncated, D143A, DHFR fusion (Arabidopsis thaliana)
Setting: methotrexate growth selection, single substitutions
Starting sequence: PYL1, truncated, DHFR fusion (Arabidopsis thaliana); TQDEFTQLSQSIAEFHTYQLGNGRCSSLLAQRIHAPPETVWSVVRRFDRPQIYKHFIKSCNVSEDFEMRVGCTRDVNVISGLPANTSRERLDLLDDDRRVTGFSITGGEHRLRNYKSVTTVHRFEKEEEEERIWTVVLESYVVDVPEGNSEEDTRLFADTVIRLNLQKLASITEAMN; partner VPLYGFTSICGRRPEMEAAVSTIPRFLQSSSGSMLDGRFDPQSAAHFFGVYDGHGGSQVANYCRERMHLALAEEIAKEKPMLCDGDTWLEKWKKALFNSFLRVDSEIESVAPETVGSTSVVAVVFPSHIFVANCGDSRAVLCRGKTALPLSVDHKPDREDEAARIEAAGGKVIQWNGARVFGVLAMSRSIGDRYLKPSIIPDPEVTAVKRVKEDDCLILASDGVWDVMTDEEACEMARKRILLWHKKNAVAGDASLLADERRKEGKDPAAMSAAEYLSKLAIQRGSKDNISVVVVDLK
Under “relative binding score”, `R132K` is recorded as 101%.
`E14S`: “relative binding score” 62.5%.
`A158V` — result for “relative binding score”: 104%.
`V100L`: “relative binding score” 54.8%.
Under “relative binding score”, `V70C` is recorded as 53.5%.
`E67W`: “relative binding score” 56.6%.
`R90H` — result for “relative binding score”: 50.2%.
`E67F`: “relative binding score” 67.1%.
For `R32L`, “relative binding score” read 74.8%.
Under “relative binding score”, `V136E` is recorded as 15.7%.
`V142H`: “relative binding score” 49.8%.
Under “relative binding score”, `S26Q` is recorded as 66%.
